Results from different studies.
Parts stem from different laboratories: compare values within a part only. Changes are numbered by the printed parent chain.

Block 1
Target: RING finger protein unkempt homolog, zinc fingers 1-6, SBP tag (UNK, Homo sapiens, UniProt Q9C0B0, residues 30-357)
UniProt Q9C0B0, sequence (30-357, looked up): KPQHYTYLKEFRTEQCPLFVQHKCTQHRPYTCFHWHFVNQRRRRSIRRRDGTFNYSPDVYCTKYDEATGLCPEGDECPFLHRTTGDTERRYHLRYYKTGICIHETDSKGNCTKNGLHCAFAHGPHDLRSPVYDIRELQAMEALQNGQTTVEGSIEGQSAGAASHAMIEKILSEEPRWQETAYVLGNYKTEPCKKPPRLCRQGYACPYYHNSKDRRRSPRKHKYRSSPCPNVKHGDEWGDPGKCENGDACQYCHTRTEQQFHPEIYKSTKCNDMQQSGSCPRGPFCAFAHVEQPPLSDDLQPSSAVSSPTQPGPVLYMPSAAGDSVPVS
Method: RNA Bind-n-Seq
Form: RNA
Sample: in vitro
Tested at: 100 nM
Setting: RNA with constant flanks, vertebrate orthologous sites, ends assumed
Reference: input RNA pool
Direction: higher = stronger binding
Endpoint: bound/input enrichment
Constant ends, left off below: GGGAGUUCUACAGUCCGACGAUC … CAACAGAGGAUUGAGCAUCA
UUCAACAAAAAUGUUUCCACUGGGUUUUGUGUCUAUAAGAAAAAAUCUAUCCCAAACACAUAGAGCUUUUUAAUAGCACUAACCAAUGCCUUUUUAGAUGUAUUUUUGAUGUAUAUAUCU: 0.308 ratio
UGCAUUAUUUGACCAGAGUUGAGGUGACAGAGUUUGAAGACAUCAAAUCAGGUUACAGAAUAGAUUUUUAUUUUGACGAGAAUCCAUACUUUGAAAAUAAAGUUCUCUCCAAAGAGUUUC: 0.956 ratio
AAUUACACUAAUACUGAAGUUAAAAUUAAAAGGAUAUCCAAGGUGAUGAUAAAGUGUGUGUUGGUAGUUACUAAAAGAACCUUAGCUGUUAUUGCCUUGUAUUUCUAUCCCUUGUUUCAG: 0.387 ratio
AAUUACACUGAUACUGAAGUUAAAAUUAAAAGGAUAUCCAAGGUUAUGAUAAAGCGUGUGUUGGUAGUUACUAAAAGAACCUUAGCUGUUAUUGCCUUGUAUUUCUAUCUCUUGUUUCAG: 0.384 ratio
CGUCAUACCAGCAUAUUAACUAGUUAGUCAUACAUGCACAGCUUAAAGAAAGUAACAGUCUAGUUAUUUUUUUAAUUGUUUUAAAAACAAGUUUCCCAGCUACGUACAAAAAAAAAAAAA: 1.22 ratio
UAAUUCCAGUCUCUUUUGCCAAGGGCUGAUAUGAAAUAUGAUUUUUUUAUUGCUUCUGUAUUACUGUUAACAUUGGGUGGGUGAUACAAAAUACAAAGUGGCAGAGUUCUUCUGUUCUUC: 0.795 ratio
AGGACCUCCAGUAGGCAAAUUCAGGGAGAGAGAGGCUUCAGGGAAUAUAAACCCAGAUAGCAGUGAUCAUGAAGUAUAACCUUGACAUAACUAAAUGAUUCGGGGGAAUGAUGGCAACUU: 1.15 ratio
CUACAAUAAUGAAAAUCUACAGGAAUUUUUUUAUUUCUCAUUAUCCCCCUUAGGCAUAUUUUAGGCUUUUUACCCCAGGCAGAUCAUUCUGAGUGUGCGAGUGUGUGUGCACAUGUUACA: 1.54 ratio
GUGAGGGUCUACUGACCACUCGCUGUUAUGUCUGGUAUCUGUAAACGCUCUUUUUGUUCUUAGUCUUUUUCUUGUAUAAUUGAUACUCUUUAAAAUUGUUAAUGUAUAACAGGGCUUAUG: 2.15 ratio
ACCCCGAUUUUAGAUGUGAUAUCUAGGCUUUCAUUCCAGUUGUUUUUGUCUUUUCUUGUUUAGAUACCACUUUUAAAUUCUUGCAUUUUAGUAAGAAAGCUACCUUUUUAUGGAUGUUAG: 0.818 ratio
AUUAGGUCAUGACCCGUAUAGAUUAGGUCAUGAUGCUUACAGGUUAGGACAGGACCCUUACAGAUUAGGCCAUGAUCCUUAUAGACUAACUCCUGAUCCCUAUAGGAUGUCACCUAGGCC: 0.259 ratio

Block 2
Target: CCNA2, cyclin fold, Cln2 fusion (human)
Method: yeast growth competition, sequencing
Sample: yeast
Setting: strong parent motif
Reference: not given
Direction: higher = stronger binding
Endpoint: normalised enrichment score
Parent: SCAPER docking peptide (human); SNARRSLNFGGST; partner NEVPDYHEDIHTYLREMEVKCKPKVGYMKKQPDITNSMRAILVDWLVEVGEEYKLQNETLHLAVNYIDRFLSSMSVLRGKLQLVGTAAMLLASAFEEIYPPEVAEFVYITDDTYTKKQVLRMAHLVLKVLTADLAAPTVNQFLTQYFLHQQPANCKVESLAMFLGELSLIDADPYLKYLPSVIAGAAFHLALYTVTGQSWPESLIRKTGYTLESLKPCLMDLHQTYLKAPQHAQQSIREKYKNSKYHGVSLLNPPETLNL
SNARASLNFGGST [R5A]: 1.11
SNARRSLNTGGST [F9T]: 0.672
ANARRSLNFGGST [S1A]: 6.26
SNARRSLNFGGQT [S12Q]: 5.97
SNARRSLNFGPST [G11P]: 6.08
SNARRSLNFIGST [G10I]: 4.69
YNARRSLNFGGST [S1Y]: 5.77
SNERRSLNFGGST [A3E]: 0.893
SNARRSLQFGGST [N8Q]: 5.9
SNARRSLNFEGST [G10E]: 5.65
SNARRSLNLGGST [F9L]: 2.71
SNARRSWNFGGST [L7W]: 0.738
SNARRELNFGGST [S6E]: 5.3
SNARRSLNFKGST [G10K]: 5.45
SNARDSLNFGGST [R5D]: -0.0331
SIARRSLNFGGST [N2I]: 5.5
SNARRSLNFNGST [G10N]: 5.76

Block 3
Target: Prothrombin, mature alpha-thrombin (F2, Homo sapiens, UniProt P00734)
Method: aptamer microarray, sandwich
Form: DNA with 2'F-ANA
Sample: in vitro
Tested at: 200 nM
Setting: whole 15-mer aptamer, many near background
With: Cy3 exosite-II aptamer, 400 nM
Direction: higher = stronger binding
Endpoint: mean fluorescence intensity
Oligonucleotide: GGTTGGTGTGGTTGG
2'F-ANA at 5 7 8 11: 153 a.u.
2'F-ANA at 3 6 8 10 12 13: 464 a.u.
2'F-ANA at 5 6 8 9 13 14 15: 79.2 a.u.
2'F-ANA at 1 5 6 9 10 11 12 13 15: 67.7 a.u.
2'F-ANA at 1 3 6 11 12: 435 a.u.
2'F-ANA at 2 5 7 9 11 12 15: 111 a.u.
2'F-ANA at 3 7 8 9: 1260 a.u.
2'F-ANA at 4 6 7 9 10 11 12 15: 90.3 a.u.
2'F-ANA at 1 2 3 6 8 9 10 12 14: 56.2 a.u.
2'F-ANA at 1 3 4 5 10: 52.3 a.u.
2'F-ANA at 2 3 7 8 10 12: 542 a.u.
2'F-ANA at 1 2 4 9 12 13 14 15: 52.1 a.u.
2'F-ANA at 1 3 4 5 11 12 13 14: 110 a.u.
2'F-ANA at 3 5 6 9: 125 a.u.
2'F-ANA at 1 2 7 10 13 15: 51.2 a.u.
2'F-ANA at 2 3 4 6 8 9 11: 500 a.u.
2'F-ANA at 1 2 3 6 9 11 12 14 15: 78.2 a.u.

Block 4
Target: Sal-like protein 4, full length isoform A (SALL4, Homo sapiens, UniProt Q9UJQ4, residues 1-1053)
UniProt Q9UJQ4, sequence (whole entry, looked up): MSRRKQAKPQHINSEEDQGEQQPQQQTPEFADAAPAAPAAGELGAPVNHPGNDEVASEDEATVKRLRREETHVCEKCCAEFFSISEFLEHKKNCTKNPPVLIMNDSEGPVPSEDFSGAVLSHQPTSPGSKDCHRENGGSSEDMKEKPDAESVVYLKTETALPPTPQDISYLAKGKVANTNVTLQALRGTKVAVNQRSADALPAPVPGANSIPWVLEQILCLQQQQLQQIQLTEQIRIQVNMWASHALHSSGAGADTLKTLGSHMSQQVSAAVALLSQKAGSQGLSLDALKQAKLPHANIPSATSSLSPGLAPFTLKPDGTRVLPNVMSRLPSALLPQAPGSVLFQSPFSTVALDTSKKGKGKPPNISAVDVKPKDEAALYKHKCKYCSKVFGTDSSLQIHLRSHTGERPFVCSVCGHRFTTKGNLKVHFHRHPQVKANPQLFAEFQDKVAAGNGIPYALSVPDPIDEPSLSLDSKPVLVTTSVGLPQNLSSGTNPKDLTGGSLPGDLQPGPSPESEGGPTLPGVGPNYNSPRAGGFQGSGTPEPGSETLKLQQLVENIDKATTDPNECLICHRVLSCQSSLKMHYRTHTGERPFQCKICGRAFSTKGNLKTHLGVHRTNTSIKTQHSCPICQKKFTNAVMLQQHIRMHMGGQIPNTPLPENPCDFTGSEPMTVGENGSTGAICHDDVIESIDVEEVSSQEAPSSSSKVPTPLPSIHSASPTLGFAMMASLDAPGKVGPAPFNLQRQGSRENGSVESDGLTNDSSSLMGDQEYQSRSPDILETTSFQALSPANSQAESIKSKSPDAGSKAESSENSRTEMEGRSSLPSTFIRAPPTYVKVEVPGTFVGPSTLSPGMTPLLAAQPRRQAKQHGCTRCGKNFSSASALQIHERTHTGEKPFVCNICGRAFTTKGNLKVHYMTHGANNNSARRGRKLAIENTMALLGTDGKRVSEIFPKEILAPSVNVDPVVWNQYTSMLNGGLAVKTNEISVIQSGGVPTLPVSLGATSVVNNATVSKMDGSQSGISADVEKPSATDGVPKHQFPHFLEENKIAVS
Method: universal PBM
Form: double-stranded DNA, one strand shown
Sample: in vitro
Tested at: 600 nM
Setting: 8-mer, flanks averaged, mean of replicates
Direction: higher = stronger binding
Endpoint: E-score
CAGCTCGG: -0.285
CGCGGGCC: -0.425
GCCGTTGA: -0.103
AGATCGTG: -0.0997
AGATCAAA: 0.112
CCCCTCAG: -0.313
CACTCTTA: 0.059
AATAGTCT: 0.283
ATGCAGGA: -0.0146
CTCAAGTA: 0.112
AACACCCG: -0.103
GGTGCTTA: -0.121
TAATGGTA: 0.176
CAGCTCGA: -0.278
ATGCCGAA: 0.0103
GTTATGAA: 0.443
GTGCCGTA: -0.129
CGCAATTA: 0.203

Block 5
Target: Histone acetyltransferase KAT6A, both winged helices, GST fusion (KAT6A, Homo sapiens, UniProt Q92794, residues 1-181)
Method: protein binding microarray
Form: double-stranded DNA, one strand shown
Sample: in vitro
Tested at: not given
Setting: 8-mer, flanks averaged, mean of 2 arrays, mostly near background
Reference: not given
Direction: higher = stronger binding
Endpoint: E-score
Residues (chain): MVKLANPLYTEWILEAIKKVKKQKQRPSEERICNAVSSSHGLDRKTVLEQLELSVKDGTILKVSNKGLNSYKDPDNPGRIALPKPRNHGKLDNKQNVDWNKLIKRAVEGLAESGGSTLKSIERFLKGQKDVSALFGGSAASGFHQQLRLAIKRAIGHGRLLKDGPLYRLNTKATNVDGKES
AGGCCCAA: -0.00237
GTCTAAAA: -0.0105
AATTGCTC: -0.136
GAAATAGA: -0.222
CTTCAGGA: -0.136
CTTCATGC: 0.0418
CACAATGA: -0.268
CCCCCGGC: 0.223
TAGTTGGA: -0.145
CAATGCAC: 0.0547
AACATTGC: 0.0194
TCCGCACA: 0.168
GTCCTCGA: -0.0632
TACTTCCA: -0.148
ACGGAGCG: 0.305
ACGGGCAA: 0.29
GAACTTCA: -0.146
ATATTAAA: 0.0445
CTTCGAAA: 0.0547
CGAGATTA: 0.0904
AGACCATG: -0.191

Block 6
Target: Ras GTPase-activating protein-binding protein 1, full length (G3BP1, Homo sapiens, UniProt Q13283)
UniProt Q13283, sequence (whole entry, looked up): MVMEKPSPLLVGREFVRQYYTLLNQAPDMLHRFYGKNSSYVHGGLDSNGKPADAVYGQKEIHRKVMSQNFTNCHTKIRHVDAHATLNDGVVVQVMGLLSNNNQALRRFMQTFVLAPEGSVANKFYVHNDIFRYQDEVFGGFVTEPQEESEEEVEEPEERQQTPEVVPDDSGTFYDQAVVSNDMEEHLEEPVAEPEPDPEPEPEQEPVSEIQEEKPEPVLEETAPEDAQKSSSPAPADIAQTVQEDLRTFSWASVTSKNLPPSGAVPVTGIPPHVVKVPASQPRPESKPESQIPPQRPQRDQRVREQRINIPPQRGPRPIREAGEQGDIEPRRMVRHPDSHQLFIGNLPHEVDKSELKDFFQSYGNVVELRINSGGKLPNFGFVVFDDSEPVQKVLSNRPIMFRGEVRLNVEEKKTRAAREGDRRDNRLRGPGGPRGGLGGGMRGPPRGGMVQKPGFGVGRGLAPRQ
Method: RNA Bind-n-Seq
Form: RNA
Sample: in vitro
Tested at: 200 nM
Setting: whole 134-nt RNA, ends assumed
With: 150 mM KCl
Reference: input library
Direction: higher = stronger binding
Endpoint: log2 enrichment
Constant ends, left off below: GGGAGUUCUACAGUCCGACGAUC … UGGAAUUCUCGGGUGUCAAGG
UCUCUUGCUCAAGUUUUCUCUCACAGAUGACAGCCACCUACCACAUAACAUGACCAGCAAACGGACUGUUCCUAGUCCAGAGGGCCUUGC: 0.99
UCAAGUCCUGUGCUACACAUCGUAUGUACCGAAUCGGGGCCGGCCGGGGCCGGGGAAAGUAUUAUGUUACGCCGUUCGGAUCUGCACUUC: -0.589
CUCAAGUCCUGUGCUACACAUCGUAUGUACCGAAUCGGGGUUGGUUGGGGUUGGAAAGUAUUAUGUUACGCCGUUCGGAUCUGCACUUCC: 0.154
CUCAAGUCCUGUGCUACACAUCGUAUGUACCGAAUCGGAAAGGAGGUUUUUGGAAAGUAUUAUGUUACGCCGUUCGGAUCUGCACUUCCA: -0.484
UCAAGUCCUGUGCUACACAUCGUAUGUACCGAAUCGGUGGUUUUUGGAAAAAGGAAAGUAUUAUGUUACGCCGUUCGGAUCUGCACUUCC: -0.717
CACAGACAACACGCACCCACACAGACACAGAGGGAAGGGGUUGGGAUGGGGACAGGGUGGACAGCAGGGCGGGGUAGGACCCCAGCCCCU: 1.78
UCAAGUCCUGUGCUACACAUCGUAUGUACCGAAUCGGUUUUUGGAGGAAAAAGGAAAGUAUUAUGUUACGCCGUUCGGAUCUGCACUUCC: -0.751
GUCCUGUGCUACACAUCGUAUGUACCGAAUCGGAAAAAGGAAAAAAAGGUUUUUUUGGAAAGUAUUAUGUUACGCCGUUCGGAUCUGCAC: -1.44
ACCAUGCAGGUGGGCAUCUUUGGGAAGUGGGGCAAGGGGGGGUUAGGGAGGGGGGUAACACUUUGGGAACAGGUGGUCCCAGGUCGUUUC: 1.2
UCCUGUGCUACACAUCGUAUGUACCGAAUCAAACCCCCAAACCCCCAAACCCCCCCAAAAAAGUAUUAUGUUACGCCGUUCGGAUCUGCA: 0.0691
UGGGAGGUGGAUUUUGUUUAUUUUUUUAGCUCAUUUCCAGGGGUGGGAAUUUUUUUUGAAUAUGUGUCAUGAAUAAAGUUGUUUUUGAAA: 0.206
UGGCCCUGGUGGCAUGCGGGGAGGAAGAGGUGGCCUCAUGGAUCGUGGUAGUCCCGGUGGAAUGUUCAGAGGUGGCCGUGGUGGAGACAG: 0.463
AGUCCUGUGCUACACAUCGUAUGUACCGAAUCGGGGUUUUUGGGGAAAGGGGAGGGGAAAGUAUUAUGUUACGCCGUUCGGAUCUGCACU: 0.3
CACAGACAACACGCACCCACACAGACACAGCGGGAAGGGGUUGGGAUGGGGACAGGGUGCACAGCAGGGCGGGGUAGGACCCCAGCCCCU: 1.9

Repeated from above (block 3):
2'F-ANA at 5 7 8 11: 153 a.u.
2'F-ANA at 3 6 8 10 12 13: 464 a.u.
2'F-ANA at 5 6 8 9 13 14 15: 79.2 a.u.
2'F-ANA at 1 5 6 9 10 11 12 13 15: 67.7 a.u.
2'F-ANA at 1 3 6 11 12: 435 a.u.
2'F-ANA at 2 5 7 9 11 12 15: 111 a.u.
2'F-ANA at 3 7 8 9: 1260 a.u.
2'F-ANA at 4 6 7 9 10 11 12 15: 90.3 a.u.
2'F-ANA at 1 2 3 6 8 9 10 12 14: 56.2 a.u.
